Measured values gathered from unrelated publications.
Each line is one published result; not all experiments were run side by side. ± marks the error that the study gave.
Target: Kappa-type opioid receptor (OPRK1, Homo sapiens, UniProt P41145)

Compound	assay	system	conditions	measurement	result
N#Cc1cc(C(=O)N[C@@H]2CC[C@@]3(O)[C@H]4Cc5ccc(O)c6c5[C@@]3(CCN4CC3CC3)[C@H]2O6)ccn1	agonist	CHO cell membranes		EC50	0.28 ± 0.03 nM
Oc1cccc2c1OC1CCCC3CN(CC4CC4)CCC231 (single isomer, unassigned)	partial agonist			EC50	2.3 ± 0.7 nM
O=C(N[C@@H]1CC[C@@]2(O)[C@H]3Cc4ccc(O)c5c4[C@@]2(CCN3CC2CC2)[C@H]1O5)c1ccnc(Br)c1	agonist	CHO cell membranes		EC50	0.34 ± 0.03 nM
COC(=O)[C@@H]1C=C(OC(=O)c2ccc3ccoc3c2)C(=O)[C@H]2[C@@]1(C)CC[C@H]1C(=O)O[C@H](c3ccoc3)C[C@]21C	forskolin-induced cAMP inhibition, agonist	CHO-K1 expressing human KOR		EC50	> 10000 nM
COC(=O)[C@@H]1C[C@H](OC(C)=O)C(=O)[C@H]2[C@@]1(C)CC[C@H]1C(=O)O[C@H](C(=O)c3ccco3)C[C@]21C	radioligand binding		added: [3H]diprenorphine	Ki	> 1000 nM
CN1CC[C@]23c4c5ccc(O)c4O[C@H]2c2ncc(-c4ccc(Cl)cc4)cc2C[C@@]3(OCCCc2ccccc2)[C@H]1C5	binding, [3H]diprenorphine displacement	CHO membranes		Ki	9.4 ± 2.4 nM
O=C(Cc1ccc(Cl)c(Cl)c1)N1CCN[C@@H]2CCC[C@H](N3CCCC3)[C@H]21	G protein activation, agonist		racemate	EC50	240 ± 86 nM
COC(=O)[C@@H]1C=C(OC(=O)c2ccc(O)c(F)c2)C(=O)[C@H]2[C@@]1(C)CC[C@H]1C(=O)O[C@H](c3ccoc3)C[C@]21C	forskolin-induced cAMP inhibition, agonist	CHO-K1 expressing human KOR		EC50	> 10000 nM
